Earlier results as cited in several papers.
Lines come from different studies, so protocols differ. ± gives the spread as reported. Non-standard residues stand in square brackets, D forms with d. Where no end group is shown, it is not given here. No end group written: not given here.
B1: disulfide; chain KPCTKLSKGWRGLCAPHKCSSYCIHHEGAYHGACLKNRHSKHYGCYCYYRHC (disulfide (positions not given here))
B2: cyclic, D-amino acids, lariat; chain T[dL]S[dD]GS (also: lariat or depsi (positions not given here))
Chain of UniProt P04191 (whole entry, looked up): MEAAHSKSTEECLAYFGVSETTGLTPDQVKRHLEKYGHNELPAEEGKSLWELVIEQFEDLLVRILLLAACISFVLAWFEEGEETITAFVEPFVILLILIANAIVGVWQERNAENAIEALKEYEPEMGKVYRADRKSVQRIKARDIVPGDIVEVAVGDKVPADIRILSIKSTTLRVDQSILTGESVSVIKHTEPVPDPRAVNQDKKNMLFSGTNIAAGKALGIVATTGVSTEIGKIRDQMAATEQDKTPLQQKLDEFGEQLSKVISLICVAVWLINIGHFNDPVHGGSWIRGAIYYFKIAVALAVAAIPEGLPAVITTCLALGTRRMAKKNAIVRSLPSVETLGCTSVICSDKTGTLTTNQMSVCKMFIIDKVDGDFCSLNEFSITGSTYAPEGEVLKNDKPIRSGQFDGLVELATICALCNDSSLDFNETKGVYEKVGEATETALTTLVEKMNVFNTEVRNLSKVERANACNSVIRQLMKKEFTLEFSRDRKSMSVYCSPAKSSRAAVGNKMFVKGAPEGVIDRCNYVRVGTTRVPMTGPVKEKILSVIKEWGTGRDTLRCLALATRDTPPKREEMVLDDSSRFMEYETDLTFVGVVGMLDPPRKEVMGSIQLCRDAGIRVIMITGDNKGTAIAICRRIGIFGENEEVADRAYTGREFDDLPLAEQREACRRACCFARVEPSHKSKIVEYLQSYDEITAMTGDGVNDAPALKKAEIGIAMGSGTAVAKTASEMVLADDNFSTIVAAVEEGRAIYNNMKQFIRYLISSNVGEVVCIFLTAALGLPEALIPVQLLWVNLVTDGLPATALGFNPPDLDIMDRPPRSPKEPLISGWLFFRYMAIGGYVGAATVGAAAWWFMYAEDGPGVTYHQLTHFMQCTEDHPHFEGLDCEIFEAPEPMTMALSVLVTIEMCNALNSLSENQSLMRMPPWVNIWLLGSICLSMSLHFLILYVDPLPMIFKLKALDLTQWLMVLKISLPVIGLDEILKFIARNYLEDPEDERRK

YNCCHPMNNLCKE  dissociation rate constant (streptavidin; peptide; bacterial display, OmpX fusion): 0.002 s⁻¹
VTATNAFNCRKERGFCRFGGCPFPLIHIGKCGPA  MIC (Pseudomonas aeruginosa; peptide): 128 µM
B1  MIC (Botrytis cinerea; growth): 1.5 µM
bevacizumab  12-month survival rate (patients with recurrent glioblastoma; dose not given, CheckMate-143 trial): 42%
Polymyxin B  maximum tolerated dose (mouse; dosed every 8 h): 25 mg/kg
abciximab  half-life (human, platelet-bound): ~2 weeks
pegcetacoplan  level, dose, no toxic effect (cynomolgus monkey; subcutaneous, 28 days, daily, GLP study): 7 mg/kg/day
phospholamban  Vmax (ATP2A1 (Oryctolagus cuniculus, UniProt P04191); enzyme activity): 6.1 ± 0.1 µmol/min/mg
capreomycin  99% growth inhibitory concentration (Mycobacterium tuberculosis; several weeks): 75 µM
enfortumab vedotin  clearance (rat): 1.8 to 3 mL/h/kg
maraviroc  HIV RNA decay rate (human, HIV infected; 300 mg twice daily): -0.58 ± 0.12 day⁻¹
omiganan  MIC (Salmonella typhimurium; SL1344): 25 µM
darobactin A  growth inhibition (Bacteroides fragilis; ATCC 25285; concentration not given): no effect
cathelicidin-BF  MIC (Staphylococcus aureus): 30 µg/mL
AEQNPIYWARYADWLFTTPLLLLDLALLVDADEGT (pHLIP (Halobacterium salinarum))  pKa (NMR, item: Asp25; peptide, lipid membrane; numbering of the source): 6.1
GTVLCCETCFLLSCCKIGCTCTRVV  MIC (Escherichia coli; peptide): 64 µM
melittin  MIC (Salmonella typhimurium; SL1344): 6.3 µM
KKTKPTPPPKPSHLK  Kd (yeast Abp1 SH3 domain; binding; peptide): 770 nM
epigallocatechin gallate  IC50 (DYRK1A; enzyme activity): ~300 nM
YCAQTGCTVNWGRCWGCIGNNSGANYATGGKSGV  MIC (Staphylococcus aureus; peptide): > 128 µM
human CCL11  IC50 (CCR3 D18A mutant): 8.07 nM
VVIA  IC50 (Aβ42-induced neurotoxicity; inhibitor, MTT reduction; peptide, differentiated PC-12): 16000 ± 5000 nM
FFFHIIHHIFHLIRRLLHRIRRRRRRHR  MIC (Escherichia coli; peptide): > 128 µM
TFELQGVVPRGVNL (V29F)  Km improvement (Prothrombin (F2, Bos taurus, UniProt P00735); substrate; peptide; reference: FXIII AP 28-41, wild-type): 2.6 fold
B2  MIC (Mycobacterium bovis; BCG): 44.4 µM
GSGCCGQGSCCGRWSGMKNIRVLWCGGCC  MIC (Pseudomonas aeruginosa; peptide): 32 µM
buforin II  MIC (Bacillus subtilis; KCTC 3068; literature value): 50 µM
cyclopropyl methoxycarbonyl metomidate  metabolic half-life (rat blood): 34.2 s
